Assay results of several laboratories.
Every numbered part comes from another study and shows a few of its results, in no order. Substitutions count along the parent as printed.

Series 1 — target: CEP164, C-terminal peptide (human); technique: DHFR complementation, deep sequencing; medium: yeast; reference: wild type; reading: higher = weaker binding
Setting: single substitutions, model-inferred values
Starting sequence: PDZK1, PDZ domain 2 (human); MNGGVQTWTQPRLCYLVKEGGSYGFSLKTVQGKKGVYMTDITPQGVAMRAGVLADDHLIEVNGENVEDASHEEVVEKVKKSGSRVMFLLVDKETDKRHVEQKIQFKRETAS; partner HNRVKVYRF
Variant	binding free energy change [kcal/mol]
A47P	1.05
V46K	0.683
E76K	0.105
I41S	1.78
K96R	-0.0294
K102F	-0.0887

Series 2 — target: NFE2L1, bZIP domain (human); technique: DHFR protein complementation; medium: yeast; reference: wild-type JUN-FOS pair; reading: higher = stronger binding
Setting: single substitutions, most at no-binding floor
Starting sequence: JUN, bZIP domain (human); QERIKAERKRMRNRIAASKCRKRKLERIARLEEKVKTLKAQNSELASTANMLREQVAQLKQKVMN; partner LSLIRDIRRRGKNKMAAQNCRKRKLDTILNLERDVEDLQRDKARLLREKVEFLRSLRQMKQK
Variant	binding fitness
R53I	-1.42 natural log
A57V	-1.53 natural log
M51V	-1.32 natural log
L52T	-1.64 natural log
N42W	-1.5 natural log
L31D	-1.53 natural log

Series 3 — technique: DHFR PCA, deep sequencing; medium: yeast; with: (+)-ABA 200 µM; reference: wild-type fitted maximum; reading: higher = stronger binding
Target: ABI1, truncated, D143A, DHFR fusion (Arabidopsis thaliana)
Setting: methotrexate growth selection, single substitutions
Starting sequence: PYL1, truncated, DHFR fusion (Arabidopsis thaliana); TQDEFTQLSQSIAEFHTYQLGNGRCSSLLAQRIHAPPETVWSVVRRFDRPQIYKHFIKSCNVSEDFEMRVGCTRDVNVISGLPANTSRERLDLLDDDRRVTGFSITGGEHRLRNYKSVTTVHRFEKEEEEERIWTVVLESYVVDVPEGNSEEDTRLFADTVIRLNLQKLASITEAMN
Variant	relative binding score
S9V	85%
E125W	98.9%
L138M	84.4%
S104Q	64.8%
I12D	35.1%
P146G	71.7%
D144H	57.4%
S63F	84.3%

Mixed results
Substance	target	assay	test system	setting	scale	quantity	value
PhoQ, residues 284 288 289 292 302 303 QWQEDG	PhoP, residues 12 14 15 18 19 FWNTL (Escherichia coli, UniProt P23836)	Sort-seq, item: YFP reporter	E. coli	PhoQ-PhoP variant library, with: 10 µM Mg2+	reference: high Mg2+ state, higher = stronger signaling	fold induction	1.16

For quick reference, copied from above (series 3):
Variant	relative binding score
L138M	84.4%
S104Q	64.8%
I12D	35.1%
